# Assay results from different studies.
# Lines come from different studies, so protocols differ.
# sdiA: Regulatory protein SdiA (sdiA, Escherichia coli, UniProt P07026)
# H2-D1 17: H-2 class I histocompatibility antigen, D-B alpha chain, 17 (H2-D1, Mus musculus, UniProt P01899)
# Tumor necrosis factor receptor superfamily member 9/Nectin-4: Tumor necrosis factor receptor superfamily member 9/Nectin-4 (Homo sapiens, UniProt Q07011+Q96NY8)
Structure (SMILES),tested on,assay,system,setting,scale,measurement,result
CCCCCCCC(=O)N[C@H]1CCOC1=O,sdiA,,,,,EC50,2.9 nM
COP(=S)(OC)Oc1nc(Cl)c(Cl)cc1Cl,"Estrogen receptor (ESR1, Homo sapiens, UniProt P03372)",agonist,,,,EC50,> 100000 nM
O=C(CCCCCCCCCN=C=S)CC(=O)N[C@H]1CCOC1=O,sdiA,,,,,EC50,4 nM
COc1ccc(C[C@@H](C)NC[C@H](O)c2ccc(O)c3[nH]c(=O)ccc23)cc1,"ADRB1 (Meleagris gallopavo, UniProt P07700, A282L/C116L/F327A/F338M/M90V/R68S/Y227A)","CRE-SPAP reporter gene (cAMP), agonist",CHO cells expressing ADRB1 β6-m23,,,EC50,4.27 nM
CCN(CC)CCNC(=O)c1ccc(-c2nc(CN3CCc4ccccc43)c(C)o2)cc1,Vero-E6,CellTiter-Glo ATP,,"concentration not given, 72 h, second round 5-point","reference: DMSO 0%, hyamine -100%, more negative, more toxic",cytotoxicity efficacy,0%
CC[C@H](C)[C@H](NC(=O)[C@H](C)NC(=O)[C@H](C)NC(=O)[C@@H](NC(=O)[C@H](C)NC(=O)[C@H](CC(N)=O)NC(=O)[C@H](Cc1c[nH]c2ccccc12)NC(=O)[C@@H](NC(=O)[C@H](CO)NC(=O)[C@@H](N)CO)C(C)C)[C@@H](C)O)C(=O)O,H2-D1 17,"H-2D stabilisation, flow cytometry",RMA-S TAP-deficient,overnight,,EC50,4000 nM
CCCC[C@@H]1NC(=O)[C@H](Cc2ccc(O)cc2)NC(=O)[C@@H]2CCCN2C(=O)[C@H](CC(=O)O)NC(=O)[C@H](C)NC(=O)[C@H](Cc2ccccc2)NC(=O)[C@@H]2CSCCC(=O)N3CN(CN(C3)C(=O)CCSC[C@H](NC(C)=O)C(=O)N[C@@H](CC(C)(C)C)C(=O)N3CCC[C@H]3C(=O)N[C@@H](CCC(=O)O)C(=O)N[C@H](CCCCNC(=O)CCc3cn(CCOCCOCCOCCOCCOCCC(=O)N[C@H]4CSCCC(=O)N5CN6CN(C5)C(=O)CCSC[C@H](NC(=O)[C@@H](CC(=O)O)NC(=O)[C@H](Cc5cccc7ccccc57)NC(=O)[C@@H]5CCCN5C4=O)C(=O)N[C@@H](CCSC)C(=O)N[C@@H](CCCCNC(=N)N)C(=O)N[C@@H](CC(=O)O)C(=O)N[C@@H](Cc4c[nH]c5ccccc45)C(=O)N[C@@H](CO)C(=O)N[C@@H]([C@@H](C)O)C(=O)N4CCC[C@H]4C(=O)N4C[C@H](O)C[C@H]4C(=O)N[C@@H](Cc4c[nH]c5ccccc45)C(=O)N[C@H](C(N)=O)CSCCC6=O)nn3)C(=O)N3CCC[C@H]3C(=O)N[C@@H](Cc3ccc(O)cc3)C(=O)N2)C(=O)CCSCCNC1=O,Tumor necrosis factor receptor superfamily member 9/Nectin-4,"reporter gene, agonist",HT-1376 coculture with reporter cells,,,EC50,3.39 nM
Cc1cnc(NC(=O)Nc2cc(Br)c(C)cc2OC[C@@H]2CNCCO2)cn1,human coronavirus OC43,virus-induced cell killing,MRC-5,maximum over 10 doses,,maximum inhibition,0.89%
C=C(C)[C@@H]1CCC(C)=C[C@H]1c1c(O)cc(CCCCC)cc1O,"Trpv2 (Rattus norvegicus, UniProt Q9WUD2)","calcium influx, agonist, Fura-2 fluorescence",Pichia pastoris membrane vesicles,,,EC50,~100000 nM
CCCC[C@@H]1NC(=O)[C@H](Cc2ccc(O)cc2)NC(=O)[C@@H]2CCCN2C(=O)[C@H](CC(=O)O)NC(=O)[C@H](C)NC(=O)[C@H](Cc2ccccc2)NC(=O)[C@@H]2CSCCC(=O)N3CN(CN(C3)C(=O)CCSC[C@H](NC(C)=O)C(=O)N[C@@H](CC(C)(C)C)C(=O)N[C@@H](CCC(=O)O)C(=O)N[C@@H](CCC(=O)O)C(=O)N[C@H](CCCCNC(=O)CCc3cn(CCOCCOCCOCCOCCOCCC(=O)N[C@H]4CSCCC(=O)N5CN6CN(C5)C(=O)CCSC[C@H](NC(=O)[C@@H](CC(=O)O)NC(=O)[C@H](Cc5cccc7ccccc57)NC(=O)[C@@H]5CCCN5C4=O)C(=O)N[C@@H](CCSC)C(=O)N[C@@H](CCCCNC(=N)N)C(=O)N[C@@H](CC(=O)O)C(=O)N[C@@H](Cc4c[nH]c5ccccc45)C(=O)N[C@@H](CO)C(=O)N[C@@H]([C@@H](C)O)C(=O)N4CCC[C@H]4C(=O)N4C[C@H](O)C[C@H]4C(=O)N[C@@H](Cc4c[nH]c5ccccc45)C(=O)N[C@H](C(N)=O)CSCCC6=O)nn3)C(=O)N3CCC[C@H]3C(=O)N[C@@H](Cc3ccc(O)cc3)C(=O)N2)C(=O)CCSC[C@@H](C(N)=O)NC1=O,Tumor necrosis factor receptor superfamily member 9/Nectin-4,"reporter gene, agonist",HT-1376 coculture with reporter cells,,,EC50,0.86 nM
CC[C@H](C)[C@H](NC(=O)[C@H](C)NC(=O)[C@@H](NC(=O)[C@@H](NC(=O)CNC(=O)[C@H](CC(N)=O)NC(=O)[C@H](Cc1c[nH]c2ccccc12)NC(=O)[C@@H](NC(=O)[C@H](CO)NC(=O)[C@@H](N)CO)C(C)C)[C@@H](C)O)[C@@H](C)O)C(=O)O,H2-D1 17,"H-2D stabilisation, flow cytometry",RMA-S TAP-deficient,overnight,,EC50,2000 nM
CC[C@@H]1CN2CCc3c([nH]c4cccc(OC)c34)[C@@H]2C[C@@H]1/C(=C\OC)C(=O)O,"OPRM1 (Homo sapiens, UniProt P35372)","G protein activation, agonist, BRET",human cells,,,EC50,> 100000 nM
CCCC[C@@H]1NC(=O)[C@H](Cc2ccc(O)cc2)NC(=O)[C@@H]2CCCN2C(=O)[C@H](CC(N)=O)NC(=O)[C@H](C)NC(=O)[C@H](Cc2ccccc2)NC(=O)[C@@H]2CSCCC(=O)N3CN(CN(C3)C(=O)CCSC[C@H](NC(C)=O)C(=O)N[C@@H](CC(C)(C)C)C(=O)N3CCC[C@H]3C(=O)N[C@@H](CCC(=O)O)C(=O)N[C@H](CCCCNC(=O)CCc3cn(CCOCCOCCOCCN(CCOCCOCCOCCC(=O)N[C@H]4CSCCC(=O)N5CN6CN(C5)C(=O)CCSC[C@H](NC(=O)[C@@H](CC(=O)O)NC(=O)[C@H](Cc5cccc7ccccc57)NC(=O)[C@@H]5CCCN5C4=O)C(=O)N[C@@H](CCSC)C(=O)N[C@@H](CCCCNC(=N)N)C(=O)N[C@@H](CC(=O)O)C(=O)N[C@@H](Cc4c[nH]c5ccccc45)C(=O)N[C@@H](CO)C(=O)N[C@@H]([C@@H](C)O)C(=O)N4CCC[C@H]4C(=O)N4C[C@H](O)C[C@H]4C(=O)N[C@@H](Cc4c[nH]c5ccccc45)C(=O)N[C@H](C(N)=O)CSCCC6=O)CCOCCOCCOCCn4cc(CCC(=O)NCCCC[C@H]5NC(=O)[C@H](CCC(=O)O)NC(=O)[C@@H]6CCCN6C(=O)[C@H](CC(C)(C)C)NC(=O)[C@@H](NC(C)=O)CSCCC(=O)N6CN7CN(C6)C(=O)CCSC[C@H](NC(=O)[C@H](Cc6ccc(O)cc6)NC(=O)[C@@H]6CCCN6C5=O)C(=O)N[C@@H](Cc5ccccc5)C(=O)N[C@@H](C)C(=O)N[C@@H](CC(N)=O)C(=O)N5CCC[C@H]5C(=O)N[C@@H](Cc5ccc(O)cc5)C(=O)N[C@@H](CCCC)C(=O)N[C@H](C(N)=O)CSCCC7=O)nn4)nn3)C(=O)N3CCC[C@H]3C(=O)N[C@@H](Cc3ccc(O)cc3)C(=O)N2)C(=O)CCSC[C@@H](C(N)=O)NC1=O,Tumor necrosis factor receptor superfamily member 9/Nectin-4,"reporter gene, agonist",HT-1376 coculture with reporter cells,,,EC50,14.1 nM
CCCC(=O)N[C@H]1CCOC1=O,sdiA,,,,,EC50,932 nM
CCCC[C@@H]1NC(=O)[C@H](Cc2ccc(O)cc2)NC(=O)[C@@H]2CCCN2C(=O)[C@H](CC(=O)O)NC(=O)[C@H](C)NC(=O)[C@H](Cc2ccccc2)NC(=O)[C@@H]2CSCCC(=O)N3CN(CN(C3)C(=O)CCSC[C@@H](C(=O)N[C@@H](CNC(=O)CCOCCOCCOCCOCCOCCn3cc(CCC(=O)N[C@H]4CSCCC(=O)N5CN6CN(C5)C(=O)CCSC[C@H](NC(=O)[C@@H](CC(=O)O)NC(=O)[C@H](Cc5cccc7ccccc57)NC(=O)[C@@H]5CCCN5C4=O)C(=O)N[C@@H](CCSC)C(=O)N[C@@H](CCCCNC(=N)N)C(=O)N[C@@H](CC(=O)O)C(=O)N[C@@H](Cc4c[nH]c5ccccc45)C(=O)N[C@@H](CO)C(=O)N[C@@H]([C@@H](C)O)C(=O)N4CCC[C@H]4C(=O)N4C[C@H](O)C[C@H]4C(=O)N[C@@H](Cc4c[nH]c5ccccc45)C(=O)N[C@H](C(N)=O)CSCCC6=O)nn3)C(N)=O)NC1=O)C(=O)CCSC[C@H](NC(C)=O)C(=O)N[C@@H](CC(C)(C)C)C(=O)N1CCC[C@H]1C(=O)N[C@@H](CCC(=O)O)C(=O)N[C@H](C)C(=O)N1CCC[C@H]1C(=O)N[C@@H](Cc1ccc(O)cc1)C(=O)N2,Tumor necrosis factor receptor superfamily member 9/Nectin-4,"reporter gene, agonist",HT-1376 coculture with reporter cells,,,EC50,1.54 nM
C/C(O)=C(\C#N)C(=O)Nc1cc(Br)ccc1Br,"MAPK14 (Homo sapiens, UniProt Q16539)","thermal stabilization, binder, isothermal NanoLuc TSA","permeabilized HeLa, Nluc fusion",,,EC50,12500 nM
CN(Cc1ccc(C(C)(C)C)cc1)Cc1cccc2ccccc12,human coronavirus OC43,virus-induced cell killing,MRC-5,screen,,maximum inhibition,9.54%

# Repeated from above:
Structure (SMILES),tested on,assay,system,setting,scale,measurement,result
CCCC[C@@H]1NC(=O)[C@H](Cc2ccc(O)cc2)NC(=O)[C@@H]2CCCN2C(=O)[C@H](CC(=O)O)NC(=O)[C@H](C)NC(=O)[C@H](Cc2ccccc2)NC(=O)[C@@H]2CSCCC(=O)N3CN(CN(C3)C(=O)CCSC[C@H](NC(C)=O)C(=O)N[C@@H](CC(C)(C)C)C(=O)N3CCC[C@H]3C(=O)N[C@@H](CCC(=O)O)C(=O)N[C@H](CCCCNC(=O)CCc3cn(CCOCCOCCOCCOCCOCCC(=O)N[C@H]4CSCCC(=O)N5CN6CN(C5)C(=O)CCSC[C@H](NC(=O)[C@@H](CC(=O)O)NC(=O)[C@H](Cc5cccc7ccccc57)NC(=O)[C@@H]5CCCN5C4=O)C(=O)N[C@@H](CCSC)C(=O)N[C@@H](CCCCNC(=N)N)C(=O)N[C@@H](CC(=O)O)C(=O)N[C@@H](Cc4c[nH]c5ccccc45)C(=O)N[C@@H](CO)C(=O)N[C@@H]([C@@H](C)O)C(=O)N4CCC[C@H]4C(=O)N4C[C@H](O)C[C@H]4C(=O)N[C@@H](Cc4c[nH]c5ccccc45)C(=O)N[C@H](C(N)=O)CSCCC6=O)nn3)C(=O)N3CCC[C@H]3C(=O)N[C@@H](Cc3ccc(O)cc3)C(=O)N2)C(=O)CCSCCNC1=O,Tumor necrosis factor receptor superfamily member 9/Nectin-4,"reporter gene, agonist",HT-1376 coculture with reporter cells,,,EC50,3.39 nM
CN(Cc1ccc(C(C)(C)C)cc1)Cc1cccc2ccccc12,human coronavirus OC43,virus-induced cell killing,MRC-5,screen,,maximum inhibition,9.54%
CCN(CC)CCNC(=O)c1ccc(-c2nc(CN3CCc4ccccc43)c(C)o2)cc1,Vero-E6,CellTiter-Glo ATP,,"concentration not given, 72 h, second round 5-point","reference: DMSO 0%, hyamine -100%, more negative, more toxic",cytotoxicity efficacy,0%
